Assay results of several laboratories.
Numbered parts are unrelated; each lists some results of a single study. Changes are numbered by the printed parent chain.

Study 1 — technique: protein binding microarray; form: double-stranded DNA, one strand shown; matrix: in vitro; tested at: not given; relative to: not given; direction: higher = stronger binding; quantity: E-score
Target: Histone acetyltransferase KAT6A, winged helix 2, GST fusion (KAT6A, Homo sapiens, UniProt Q92794, residues 85-181)
Setting: 8-mer, flanks averaged, mean of 2 arrays, mostly near background
Target sequence (chain): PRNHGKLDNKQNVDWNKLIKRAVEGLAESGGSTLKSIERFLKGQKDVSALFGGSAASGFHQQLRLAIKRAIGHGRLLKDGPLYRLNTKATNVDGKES
ACTACTGG: -0.337
CAGCCACC: 0.225
AGTGGAGG: 0.0109
GGTTTAAA: 0.0643
CTACGCAA: 0.00366
CAACTCTA: -0.127

Study 2 — target: CCNF, cyclin fold, Cln2 fusion (human); technique: yeast growth competition, sequencing; matrix: yeast; setting: strong parent motif; relative to: not given; direction: higher = stronger binding; quantity: normalised enrichment score
Starting sequence: BRCA2 docking peptide (human); PSIKRNLLNEFDR; partner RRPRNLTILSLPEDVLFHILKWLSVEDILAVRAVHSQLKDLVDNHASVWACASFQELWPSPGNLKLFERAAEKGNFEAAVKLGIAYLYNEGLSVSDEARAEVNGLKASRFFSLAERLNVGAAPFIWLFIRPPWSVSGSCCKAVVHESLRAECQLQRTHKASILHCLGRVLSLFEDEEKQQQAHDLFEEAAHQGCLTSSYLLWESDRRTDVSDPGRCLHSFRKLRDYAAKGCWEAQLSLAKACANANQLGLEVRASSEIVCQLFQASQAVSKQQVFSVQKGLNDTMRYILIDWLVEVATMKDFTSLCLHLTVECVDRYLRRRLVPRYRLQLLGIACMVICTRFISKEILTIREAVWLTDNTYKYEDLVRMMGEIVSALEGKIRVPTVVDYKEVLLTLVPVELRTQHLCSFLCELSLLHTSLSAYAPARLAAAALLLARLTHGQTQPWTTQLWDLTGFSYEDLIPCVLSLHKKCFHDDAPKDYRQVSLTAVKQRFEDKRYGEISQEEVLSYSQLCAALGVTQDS
N6G: 0.0344
N9C: 2.51
R5K F11L: 0.138
N6F: 2.26

Study 3 — technique: RNA Bind-n-Seq; form: RNA; matrix: in vitro; tested at: 365 nM; relative to: no-protein control; direction: higher = stronger binding; quantity: RBNS enrichment (R)
Target: RNA binding protein fox-1 homolog 2, RRM domain, GST-SBP tag (RBFOX2, Homo sapiens, UniProt O43251-10, residues 100-194)
Setting: natural RNA segment, single round, ends assumed
GGGAGUUCUACAGUCCGACGAUCAGGCAAAAUCAUGAAAUACACUCGGUUCUGUAAAUUGCUUCUUUAAAUGUCCCGUAGAUUCUUCCUGUAGGAAAACGUUACAAGUAUUCAAAGACAGCUAGCUGUCACUGUGGAAUUCUCGGGUGCCAA: 0.381
GGGAGUUCUACAGUCCGACGAUCACUCACUUUUUCUCAUCAGAGUCUCUCCUUGCCACAGCCCGGGUCACCAUCGGUUCCCUGGCCUCCCUCCGUGGUCCAGCACUGGCCCCAGUAUGCUGUGUAUGCAGCAGUGGAAUUCUCGGGUGCCAA: 0.456
GGGAGUUCUACAGUCCGACGAUCAUUCCGUGCCUCUGGGCCAAGAGGUCAGCUUUCUGCACGAGGAGAAAAACAGUAACUGCUGUUUGUUACAGCCUGAAAUCCAGGACGACCGCAUUUUCUCUUGGUUUCUAUGGAAUUCUCGGGUGCCAA: 14.2
GGGAGUUCUACAGUCCGACGAUCAAAUUUGAGUCAGAAUGUUUGGAGAAAUGUUGUUUUUUUUUUUUUCAGAGACUACUUUGUCACUCACUGACCAUGUCUGGUUCCUUCUCUGAACUUCAUUCUCCCCAUAAUGGAAUUCUCGGGUGCCAA: 0.828

Other studies, line by line
PhoQ, residues 284 288 289 292 302 303 TNASYF
fold induction (PhoP, residues 12 14 15 18 19 GQALL (Escherichia coli, UniProt P23836); Sort-seq, measured: YFP reporter; E. coli; PhoQ-PhoP variant library, together with: 10 µM Mg2+; relative to: high Mg2+ state, higher = stronger signaling): 4.76
